# Measurements pooled from the literature.
SMILES,test,test system,conditions,adverse event incidence [%]
CNC(=O)c1ccc(-c2cnc3ncc(Cc4ccc5ncccc5c4)n3n2)cc1F,"phase 1 clinical trial, measured: blood bilirubin increased",other expansion cohort,"oral, 600 mg twice daily, grade 3 or 4",0
Cc1c(Cl)c(C)[n+]([O-])c(Cl)c1-c1noc(-c2cc(O)c(O)c([N+](=O)[O-])c2)n1,measured: Moderate severity,healthy Chinese subjects,"oral, 100 mg",0
NCCONC(=O)[C@@H]1CC[C@@H]2CN1C(=O)N2OS(=O)(=O)O,measured: urinary occult blood positive,healthy Chinese men,"intravenous, 1 g, treatment-emergent",0
CC(=O)O[C@H]1C(=O)[C@@]2(C)[C@H]([C@H](OC(=O)c3ccccc3)[C@]3(O)C[C@H](OC(=O)[C@H](O)[C@@H](NC(=O)c4ccccc4)c4ccccc4)C(C)=C1C3(C)C)[C@]1(OC(C)=O)CO[C@@H]1C[C@@H]2O,measured: Alopecia,patients with advanced solid tumours,"intravenous, dose not given, grade 3 and 4, possibly related to drug",0
O=C1CCc2ccc(OCCCCN3CCN(c4cccc(Cl)c4Cl)CC3)cc2N1,measured: Tremor,"genotyped patients, CYP2D6 intermediate metabolizers","dose not given, long-acting oral or depot",8.6
FC(F)(F)c1ccc(CNc2ccc(Cc3c[nH]c4ncc(Cl)cc34)cn2)cn1,measured: Vomiting,patients with advanced solid tumours,"oral, dose not given, all grades, possibly related to drug",26
CC(C)n1c(Nc2cccnc2)nc2cnc(Nc3ccc(N4CCN(C)CC4)cc3)nc21,measured: Hyperuricemia,healthy male subjects,"oral, 100 mg, added: itraconazole",14.3
Cc1ccc(Sc2ccccc2N2CCNCC2)c(C)c1,TEAE blood in urine,healthy adult men,"oral, 5 mg single dose, 10 days",0
Cc1c(C(=O)O)ccc2c3n(nc12)[C@@H]1[C@H](C3)N(CC2CC2)[C@@]2(C(=O)Nc3cc(Cl)ccc32)[C@H]1c1cccc(Cl)c1F,"phase Ia trial, measured: Nausea",cancer patients,"oral, dose not given, all patients all grades",87

# Excerpt of the above:
SMILES,test,test system,conditions,adverse event incidence [%]
Cc1c(Cl)c(C)[n+]([O-])c(Cl)c1-c1noc(-c2cc(O)c(O)c([N+](=O)[O-])c2)n1,measured: Moderate severity,healthy Chinese subjects,"oral, 100 mg",0
